Measured values of several laboratories.
Protocols differ between the studies behind these lines.
Organism: Staphylococcus aureus

Compound	assay	test system	setting	MIC
CN[C@H](CC(C)C)C(=O)N[C@H]1C(=O)N[C@@H](CC(N)=O)C(=O)N[C@H]2C(=O)N[C@H]3C(=O)N[C@H](C(=O)N[C@H](C(=O)O)c4cc(O)cc(O)c4-c4cc3ccc4O)[C@H](O)c3ccc(c(Cl)c3)Oc3cc2cc(c3O[C@@H]2O[C@H](CO)[C@@H](O)[C@H](O)[C@H]2O[C@H]2C[C@](C)(NCc3ccc(OCc4cn(CC(=O)N[C@H](C(=O)N[C@@H](CCN)C(=O)N[C@H]5CCNC(=O)[C@H]([C@@H](C)O)NC(=O)[C@H](CCN)NC(=O)[C@H](CCN)NC(=O)[C@H](CC(C)C)NC(=O)[C@@H](CC(C)C)NC(=O)[C@H](CCN)NC5=O)[C@@H](C)O)nn4)c(OC)c3)[C@H](O)[C@H](C)O2)Oc2ccc(cc2Cl)[C@H]1O	–	NRS402 VISA	–	3 µM
c1ccc(CN2CCOCCOCCN(CCCCCCCCCCCCCCN3CCOCCOCCN(CCCCCCCCCCCCCCN4CCOCCOCCN(Cc5ccccc5)CCOCCOCC4)CCOCCOCC3)CCOCCOCC2)cc1	–	1199B (NorA overexpressing)	–	≤ 1 µM
Nc1ccccc1C(=O)OCC#CCOC(=O)c1ccccc1N	microbial growth, broth dilution	MB2865	–	> 128 µg/mL
CC[C@H](C)[C@H](NC(=O)[C@H](CCCCN)NC(=O)[C@H](CC(N)=O)NC(=O)CNC(=O)[C@@H](NC(=O)[C@H](C)NC(=O)[C@H](CCCNC(=N)N)NC(=O)[C@H](CC(C)C)NC(=O)[C@H](CCCCN)NC(=O)[C@H](CCCCN)NC(=O)[C@H](CCCCN)NC(=O)[C@H](C)NC(=O)[C@H](CCCCN)NC(=O)[C@@H]1CSSC[C@H](NC(=O)[C@H](CCCNC(=N)N)NC(=O)CN)C(=O)N[C@@H](CC(N)=O)C(=O)N[C@@H](CC(C)C)C(=O)N[C@@H](CC(C)C)C(=O)N1)C(C)C)C(=O)N[C@@H](CCCCN)C(=O)N[C@@H](CCC(=O)O)C(=O)N[C@H](C(=O)N[C@@H](CCCCN)C(=O)N[C@@H](CC(N)=O)C(=O)N[C@H](C(=O)N[C@H](C(=O)N[C@@H](Cc1ccccc1)C(=O)N[C@@H](CC(N)=O)C(=O)N[C@@H](CCCNC(=N)N)C(=O)O)C(C)C)C(C)C)[C@@H](C)CC	broth dilution	ATCC 25923	–	100 µM
CC[C@H](C)[C@H](N)C(=O)N[C@@H](C)C(=O)N[C@@H](CC(C)C)C(=O)N[C@H](CCC(=O)O)C(=O)N[C@H](C(=O)N[C@H]1CCCCNC(=O)[C@H](CC(N)=O)NC(=O)[C@@H](CC(=O)O)NC(=O)[C@H](Cc2c[nH]cn2)NC(=O)[C@@H](Cc2ccccc2)NC(=O)[C@H]([C@@H](C)CC)NC(=O)[C@@H](CCCN)NC1=O)[C@@H](C)CC	–	USA300 methicillin-resistant	18 h, 37 °C, 0.3 mM ZnSO4 LB	> 64 µg/mL
Cc1ccc2[nH]c3c(c2c1)CCCC3NCCc1ccc(O)cc1 (stereo not shown)	broth microdilution	Mu50 VISA	–	16 µg/mL
CC[C@H](C)[C@H](NC(=O)[C@@H](CCCNC(=N)N)NC(=O)[C@H](CCCNC(=N)N)NC(=O)[C@@H](NC(=O)[C@H](Cc1c[nH]c2ccccc12)NC(=O)[C@H](CCCNC(=N)N)NC(=O)[C@@H]1CCCN1C(=O)[C@H](CCCNC(=N)N)NC(=O)[C@@H]1CCCN1C(=O)[C@H](CC(C)C)NC(=O)[C@H](Cc1ccc(O)cc1)NC(=O)[C@@H]1CCCN1C(=O)[C@@H]1CCCN1C(=O)[C@H](CCCCN)NC(=O)[C@H](CC(=O)O)NC(=O)[C@@H](N)C(C)C)C(C)C)C(=O)N[C@@H](Cc1ccc(O)cc1)C(=O)N[C@@H](CC(N)=O)C(=O)N[C@H](CCCNC(=N)N)C(N)=O	broth microdilution	DSM 6247	18 h, 37 °C, 25% MHB2	64 µg/mL
CC(=O)N[C@@H](CC(C)C)C(=O)N[C@H]1CSSC[C@@H](C(=O)N2CCC[C@H]2C(N)=O)NC(=O)[C@H]([C@@H](C)O)NC(=O)[C@H](C(C)C)NC(=O)[C@H]([C@@H](C)O)NC(=O)CNC(=O)[C@H](CCCCN)NC(=O)[C@H](Cc2ccccc2)NC(=O)[C@H](Cc2ccc(O)cc2)NC(=O)[C@H](CCCCN)NC(=O)[C@H](CCC(=O)O)NC(=O)[C@H](Cc2ccccc2)NC(=O)[C@H](CCCNC(=N)N)NC(=O)[C@H](CCCCN)NC(=O)[C@H](CC(C)C)NC(=O)[C@H](CC(=O)O)NC(=O)[C@@H]2CCCN2C(=O)[C@H](CCCCN)NC(=O)[C@H](C(C)C)NC(=O)[C@H](CCCCN)NC(=O)[C@H](CCCCN)NC(=O)[C@H]([C@@H](C)O)NC1=O	broth dilution	laboratory strain	24 h	> 40 µM
CN[C@H](CC(C)C)C(=O)N[C@H]1C(=O)N[C@@H](CC(N)=O)C(=O)N[C@H]2C(=O)N[C@H]3C(=O)N[C@H](C(=O)N[C@H](C(=O)NCc4cn(CCCCC(=O)N[C@H](C(=O)N[C@@H](CCN)C(=O)N[C@H]5CCNC(=O)[C@H]([C@@H](C)O)NC(=O)[C@H](CCN)NC(=O)[C@H](CCN)NC(=O)[C@H](CC(C)C)NC(=O)[C@@H](CC(C)C)NC(=O)[C@H](CCN)NC5=O)[C@@H](C)O)nn4)c4cc(O)cc(O)c4-c4cc3ccc4O)[C@H](O)c3ccc(c(Cl)c3)Oc3cc2cc(c3O[C@@H]2O[C@H](CO)[C@@H](O)[C@H](O)[C@H]2O[C@H]2C[C@](C)(N)[C@H](O)[C@H](C)O2)Oc2ccc(cc2Cl)[C@H]1O	–	MSSA ATCC 29213	–	0.098 µM
CC[C@H](C)[C@H](NC(=O)[C@@H](CCCNC(=N)N)NC(=O)[C@H](CCCNC(=N)N)NC(=O)CNC(=O)[C@H](Cc1c[nH]c2ccccc12)NC(=O)[C@H](CCCNC(=N)N)NC(=O)[C@@H]1CCCN1C(=O)[C@H](CCCNC(=N)N)NC(=O)[C@@H]1CCCN1C(=O)[C@H](CC(C)C)NC(=O)[C@H](Cc1ccc(O)cc1)NC(=O)[C@@H]1CCCN1C(=O)[C@@H]1CCCN1C(=O)[C@H](CCCCN)NC(=O)[C@H](CC(=O)O)NC(=O)[C@@H](N)C(C)C)C(=O)N[C@@H](Cc1ccc(O)cc1)C(=O)N[C@@H](CC(N)=O)C(=O)N[C@H](CCCNC(=N)N)C(N)=O	broth microdilution	DSM 6247	18 h, 37 °C, 25% MHB2	32 µg/mL
COc1ccc2ccc(O)c(/C=N/[C@H]3CCCC[C@H]3/N=C/c3ccc(C)cc3O)c2c1	bacterial growth, broth microdilution	vancomycin-intermediate	–	> 40 µM
CC(C)[C@H](NC(=O)[C@H](Cc1ccc(O)cc1)NC(=O)[C@H](CS)NC(=O)[C@@H](NC(=O)[C@H](CCCNC(=N)N)NC(=O)[C@H](Cc1ccccc1)NC(=O)[C@H](CS)NC(=O)[C@H](Cc1c[nH]c2ccccc12)NC(=O)[C@@H](N)CCCNC(=N)N)C(C)C)C(=O)NCC(=O)N[C@@H](Cc1ccccc1)C(=O)N[C@@H](CS)C(=O)N[C@@H](Cc1ccc(O)cc1)C(=O)N[C@@H](Cc1c[nH]c2ccccc12)C(=O)N[C@@H](CCCCN)C(=O)N[C@@H](CS)C(=O)N[C@@H](CCCNC(=N)N)C(=O)O	broth microdilution	ATCC 25923, Mueller-Hinton broth	16 to 20 h, 37 °C	1.1 µg/mL
CN[C@H](CC(C)C)C(=O)N[C@H]1C(=O)N[C@@H](CC(N)=O)C(=O)N[C@H]2C(=O)N[C@H]3C(=O)N[C@H](C(=O)N[C@H](C(=O)O)c4cc(O)cc(O)c4-c4cc3ccc4O)[C@H](O)c3ccc(c(Cl)c3)Oc3cc2cc(c3O[C@@H]2O[C@H](CO)[C@@H](O)[C@H](O)[C@H]2O[C@H]2C[C@](C)(NCc3ccc(OCc4cn(CCCCC(=O)N[C@H](C(=O)N[C@@H](CCN)C(=O)N[C@H]5CCNC(=O)[C@H]([C@@H](C)O)NC(=O)[C@H](CCN)NC(=O)[C@H](CCN)NC(=O)[C@H](CC(C)C)NC(=O)[C@@H](CC(C)C)NC(=O)[C@H](CCN)NC5=O)[C@@H](C)O)nn4)c(OC)c3)[C@H](O)[C@H](C)O2)Oc2ccc(cc2Cl)[C@H]1O	–	MRSA USA300	–	0.093 µM
CC[C@H](C)[C@H](NC(=O)[C@H](Cc1c[nH]c2ccccc12)NC(=O)[C@H](CCCNC(=N)N)NC(=O)[C@@H](N)CCCNC(=N)N)C(=O)N[C@@H](CCCNC(=N)N)C(=O)N[C@@H](Cc1c[nH]c2ccccc12)C(=O)N[C@H](C(=O)N[C@H](C(N)=O)[C@@H](C)O)[C@@H](C)CC	–	6538	–	32 µg/mL
CC(C)C[C@@H]1NC(=O)[C@H](CCCCN)NC(=O)CNC(=O)[C@H]2CCCN2C(=O)[C@H](CCCCN)NC(=O)[C@H](CC(C)C)NC(=O)[C@H](CCCCN)NC(=O)C2CCC=CCCC(NC(=O)[C@H](CCCCN)NC1=O)C(=O)N[C@@H](CCCCN)C(=O)NC(C(N)=O)CCC=CCCC(N)C(=O)N[C@@H](CCCCN)C(=O)N2 (stereo partly shown)	broth microdilution	ATCC 29737, Mueller-Hinton broth	18 h, 37 °C	128 µM
CN[C@@H]1[C@H](O)[C@H](NC)[C@H]2O[C@]3(O)[C@H](O[C@@H]2[C@H]1O)O[C@H](C)C[C@H]3NC(=O)Cc1cc(Cl)ccn1	microbial growth, broth dilution	8325	–	12.5 µg/mL
CC[C@H](C)[C@@H]1NC(=O)[C@H](CO)NC(=O)C(C)(CCCCN)NC(=O)[C@@H]2CSSC[C@@H](C(=O)N[C@@H](Cc3ccc(O)cc3)C(N)=O)NC(=O)[C@H](CCCCN)NC(=O)[C@@H]3CSSC[C@H](NC(=O)[C@H](CCCNC(=N)N)NC(=O)C(C)(CC(C)C)NC(=O)[C@H](CC(=O)O)NC(=O)[C@H](CC(=O)O)NC(=O)[C@H](CCC(=O)O)NC(=O)[C@H](CC(N)=O)NC(=O)[C@H](Cc4c[nH]c5ccccc45)NC(=O)[C@@H]4CCCN4C(=O)CNC(=O)[C@H](CC(N)=O)NC(=O)[C@@H](NC(=O)CNC(=O)[C@H](Cc4ccccc4)NC(=O)CN)CSSC[C@H](NC(=O)[C@H](Cc4ccc(O)cc4)NC(=O)CNC(=O)CNC(=O)[C@H](CCCCN)NC(=O)[C@H](Cc4ccc(O)cc4)NC(=O)CNC(=O)[C@H](CCCCN)NC1=O)C(=O)N[C@@H](C)C(=O)N[C@@H](CCCCN)C(=O)NCC(=O)NCC(=O)N[C@@H](Cc1ccccc1)C(=O)N[C@@H](C(C)C)C(=O)N3)C(=O)N[C@@H](Cc1c[nH]cn1)C(=O)NC(C)(C)C(=O)N[C@@H](Cc1c[nH]cn1)C(=O)N2 (stereo partly shown)	broth microdilution	ATCC 49775	18 h	0.5 µM
N=C(N)NCCC[C@@H]1NC(=O)[C@@H](CCCNC(=N)N)NC(=O)[C@H](CCCNC(=N)N)NC(=O)[C@@H](C(c2ccccc2)c2ccccc2)NC(=O)[C@@H](C(c2ccccc2)c2ccccc2)NC(=O)[C@@H](C(c2ccccc2)c2ccccc2)NC(=O)[C@@H](CCCNC(=N)N)NC1=O	–	1195201, multidrug-resistant	–	4 µg/mL
CC(C)C[C@@H](NC(=O)[C@@H](CCCNC(=N)N)NC(=O)[C@H](N)CCCNC(=N)N)C(=O)N[C@H](CC(C)C)C(=O)N[C@H](CCCNC(=N)N)C(=O)N[C@H](CCCCN)C(=O)N[C@H](CC(C)C)C(=O)N[C@H](CCCCN)C(=O)NCC(=O)N[C@H](CCCCN)C(=O)N[C@H](CCCCN)C(=O)N[C@H](CC(C)C)C(=O)N[C@H](Cc1ccc(O)cc1)C(=O)N[C@H](CC(C)C)C(=O)N[C@H](Cc1ccc(O)cc1)C(=O)N[C@H](Cc1ccccc1)C(=O)N[C@H](CCCCN)C(=O)N[C@H](CC(C)C)C(=O)N[C@H](CCC(N)=O)C(=O)N[C@H](CC(C)C)C(=O)N[C@H](CC(C)C)C(=O)N[C@H](CCCCN)C(=O)N[C@H](CCCCN)C(N)=O	–	KCTC 1621, Mueller-Hinton broth	with: 1 mM MgCl2	16 µM

Repeated from above:
Compound	assay	test system	setting	MIC
CC(C)C[C@@H](NC(=O)[C@@H](CCCNC(=N)N)NC(=O)[C@H](N)CCCNC(=N)N)C(=O)N[C@H](CC(C)C)C(=O)N[C@H](CCCNC(=N)N)C(=O)N[C@H](CCCCN)C(=O)N[C@H](CC(C)C)C(=O)N[C@H](CCCCN)C(=O)NCC(=O)N[C@H](CCCCN)C(=O)N[C@H](CCCCN)C(=O)N[C@H](CC(C)C)C(=O)N[C@H](Cc1ccc(O)cc1)C(=O)N[C@H](CC(C)C)C(=O)N[C@H](Cc1ccc(O)cc1)C(=O)N[C@H](Cc1ccccc1)C(=O)N[C@H](CCCCN)C(=O)N[C@H](CC(C)C)C(=O)N[C@H](CCC(N)=O)C(=O)N[C@H](CC(C)C)C(=O)N[C@H](CC(C)C)C(=O)N[C@H](CCCCN)C(=O)N[C@H](CCCCN)C(N)=O	–	KCTC 1621, Mueller-Hinton broth	with: 1 mM MgCl2	16 µM
Nc1ccccc1C(=O)OCC#CCOC(=O)c1ccccc1N	microbial growth, broth dilution	MB2865	–	> 128 µg/mL
